{"data": "Measurements collected from several papers", "note": "Parts stem from different laboratories: compare values within a part only."}
{"data": "Block 1", "target": "Prothrombin, mature alpha-thrombin (F2, Homo sapiens, UniProt P00734)", "method": "aptamer microarray, sandwich", "molecule type": "DNA with 2'F-ANA", "matrix": "in vitro", "tested at": "200 nM", "notes": "whole 15-mer aptamer, many near background", "with": "Cy3 exosite-II aptamer, 400 nM", "reading": "higher = stronger binding", "strand": "GGTTGGTGTGGTTGG"}
{"Modification": "2'F-ANA at 1 2 3 5 8 9 10 11 12 13 14", "mean fluorescence intensity [a.u.]": 51}
{"Modification": "2'F-ANA at 2 3 5 6 11 12 13 14", "mean fluorescence intensity [a.u.]": 120}
{"Modification": "2'F-ANA at 1 2 3 8 9 11 13 14", "mean fluorescence intensity [a.u.]": 67.4}
{"Modification": "2'F-ANA at 2 5 6 8 11 14", "mean fluorescence intensity [a.u.]": 47.1}
{"Modification": "2'F-ANA at 1 2 3 5 6 9 10 12 14", "mean fluorescence intensity [a.u.]": 63.9}
{"Modification": "2'F-ANA at 2 4 5 7 8 11 13 15", "mean fluorescence intensity [a.u.]": 57.7}
{"Modification": "2'F-ANA at 6 7 8 9 12", "mean fluorescence intensity [a.u.]": 940}
{"Modification": "2'F-ANA at 3 9 10 13 15", "mean fluorescence intensity [a.u.]": 489}
{"Modification": "2'F-ANA at 2 7 8 10 12 13 14 15", "mean fluorescence intensity [a.u.]": 98.1}
{"Modification": "2'F-ANA at 2 3 6 7 8 9 10 15", "mean fluorescence intensity [a.u.]": 326}
{"Modification": "2'F-ANA at 2 3 5 6 9 10 11 12 13", "mean fluorescence intensity [a.u.]": 53}
{"Modification": "2'F-ANA at 2 3 6 7 9 13 14", "mean fluorescence intensity [a.u.]": 304}
{"Modification": "2'F-ANA at 1 6 7 8 11 12 13 14 15", "mean fluorescence intensity [a.u.]": 73.5}
{"Modification": "2'F-ANA at 1 2 4 6 7 9 10 15", "mean fluorescence intensity [a.u.]": 49.2}
{"Modification": "2'F-ANA at 1 3 6 8 10 13 14", "mean fluorescence intensity [a.u.]": 58.9}
{"Modification": "2'F-ANA at 1 5 6 7 8 9 10 11 15", "mean fluorescence intensity [a.u.]": 50.7}
{"Modification": "2'F-ANA at 1 4 5 7 8 10 13 14 15", "mean fluorescence intensity [a.u.]": 47.4}
{"Modification": "2'F-ANA at 3 5 12 13 15", "mean fluorescence intensity [a.u.]": 200}
{"Modification": "2'F-ANA at 1 2 3 5 7 8 9 10 11 12 13 14", "mean fluorescence intensity [a.u.]": 164}
{"Modification": "2'F-ANA at 2 3 5 7 9 10 12", "mean fluorescence intensity [a.u.]": 85.2}
{"data": "Block 2", "target": "Myc proto-oncogene protein, bHLH-zipper, MAX partner unstated (MYC, Homo sapiens, UniProt P01106, residues 368-449)", "method": "protein-binding microarray", "molecule type": "double-stranded DNA, one strand shown", "matrix": "in vitro", "tested at": "not given", "notes": "k-mer, scored over probes, only values ≥0.25", "reading": "higher = stronger binding", "UniProt P01106, sequence (368-449, looked up)": "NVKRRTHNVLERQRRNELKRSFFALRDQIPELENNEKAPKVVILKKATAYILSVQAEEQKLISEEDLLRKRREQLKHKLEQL"}
{"Strand": "CAGCCACG", "E-score": 0.375}
{"Strand": "CACGCTTC", "E-score": 0.382}
{"Strand": "CGGCCACG", "E-score": 0.397}
{"Strand": "ACGTGATC", "E-score": 0.314}
{"Strand": "AATCGTGG", "E-score": 0.259}
{"Strand": "GAGCGTGA", "E-score": 0.254}
{"Strand": "CCCGTGCG", "E-score": 0.306}
{"Strand": "ATGCGACA", "E-score": 0.278}
{"Strand": "CGCATGAG", "E-score": 0.355}
{"Strand": "AGAACGTG", "E-score": 0.37}
{"Strand": "ATGCACGC", "E-score": 0.412}
{"Strand": "CGTGGGAG", "E-score": 0.285}
{"Strand": "GAACACGC", "E-score": 0.397}
{"Strand": "CCTCGCCC", "E-score": 0.292}
{"Strand": "AGATGCAC", "E-score": 0.256}
{"Strand": "CCATGAGG", "E-score": 0.465}
{"data": "Block 3", "target": "Centromere-binding protein 1, full length, N-terminal tag (CBF1, Saccharomyces cerevisiae, UniProt P17106, residues 1-351)", "method": "protein-binding microarray", "molecule type": "double-stranded DNA, one strand shown", "matrix": "in vitro", "tested at": "0.8 µM", "notes": "whole 60-bp probe, no competitor", "reading": "higher = stronger binding", "constant ends, left off below": "… GTCTTGATTCGCTTGACGCTGCTG", "UniProt P17106, sequence (whole entry, looked up)": "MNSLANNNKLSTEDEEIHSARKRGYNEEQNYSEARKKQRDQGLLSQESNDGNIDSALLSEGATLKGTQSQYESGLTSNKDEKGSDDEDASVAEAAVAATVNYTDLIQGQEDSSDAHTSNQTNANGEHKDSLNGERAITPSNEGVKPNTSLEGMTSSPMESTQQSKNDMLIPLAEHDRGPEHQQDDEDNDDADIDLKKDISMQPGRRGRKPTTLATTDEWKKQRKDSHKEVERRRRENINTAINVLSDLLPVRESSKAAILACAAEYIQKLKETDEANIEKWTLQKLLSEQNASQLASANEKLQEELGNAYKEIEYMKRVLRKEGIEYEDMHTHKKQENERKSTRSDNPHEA"}
{"Strand": "CTACCACTTTTTTATCACGTTTCTTAGCGTTATTTC", "fluorescence intensity [a.u.]": 1440}
{"Strand": "CTATGTCCAAATTAGGACGTGGTTTATAGCCGATTC", "fluorescence intensity [a.u.]": 510}
{"Strand": "CTAAGTAACGTAAGTCACGTGCTTTCTAACCATTTC", "fluorescence intensity [a.u.]": 21500}
{"Strand": "TGTACGAAGCTATTCAACGTGGGTATAGTAGTTAGG", "fluorescence intensity [a.u.]": 556}
{"Strand": "GAAAGTTTATTATTCAACGTGTCCAATTTTCACTAG", "fluorescence intensity [a.u.]": 573}
{"Strand": "TGTACGAAGCTATGGCACGAGATTATAGTAGTTAGG", "fluorescence intensity [a.u.]": 783}
{"Strand": "CTAACCATTGAAGGGTCGGTGACGTGGAAATTTTTC", "fluorescence intensity [a.u.]": 510}
{"Strand": "CCTAACTACTATAGTCATGTGATATAGCTTCGTACA", "fluorescence intensity [a.u.]": 5120}
{"Strand": "GAATAGCTTCCATTACACCTGATGACTATTCTCTAG", "fluorescence intensity [a.u.]": 777}
{"Strand": "CTAATTAACTATTTTAGCGTGACTGACTGATAATTC", "fluorescence intensity [a.u.]": 681}
{"Strand": "CTATCAATATAAATACAGCTGATTACATATAAATTC", "fluorescence intensity [a.u.]": 634}
{"Strand": "CTAACAGGACCGCATCACGTCAGAATAGTTTTTTTC", "fluorescence intensity [a.u.]": 543}
{"Strand": "GAACTATTGGACAGTCTCCTGTCTTACACTAGCTAG", "fluorescence intensity [a.u.]": 497}
{"Strand": "GAACCATAAAGCCTTCACGTTATACTTTTTTTTTAG", "fluorescence intensity [a.u.]": 609}
{"Strand": "CTAATTGCTTTTTCTGACGTGCTTCCTTCACTATTC", "fluorescence intensity [a.u.]": 539}
{"Strand": "GAAAGGGTGCTGAATCGTGATCACGACCCGCGGTAG", "fluorescence intensity [a.u.]": 2650}
{"Strand": "CTATAATTGATTGGGCACCACGTAAATTCTTGATTC", "fluorescence intensity [a.u.]": 502}
{"Strand": "CCTAACTACTATAGTGATTTTTCATAGCTTCGTACA", "fluorescence intensity [a.u.]": 518}
{"data": "Block 4", "target": "RNA binding protein fox-1 homolog 2, RRM domain, GST-SBP tag (RBFOX2, Homo sapiens, UniProt O43251-10, residues 100-194)", "method": "RNA Bind-n-Seq", "molecule type": "RNA", "matrix": "in vitro", "tested at": "365 nM", "notes": "natural RNA segment, single round, ends assumed", "baseline": "no-protein control", "reading": "higher = stronger binding", "constant ends, left off below": "GGGAGUUCUACAGUCCGACGAUC … UGGAAUUCUCGGGUGCCAA", "Construct (chain)": "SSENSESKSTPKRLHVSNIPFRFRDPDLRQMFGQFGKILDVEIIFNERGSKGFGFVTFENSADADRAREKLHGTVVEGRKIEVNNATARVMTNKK"}
{"Strand": "GUCCUGCCAUUCGUGUGCUUCCAUGGACAAACCUGAUUUUUUUCUCUUAGUUCUAAAGAAUCUUGGGUUAUUUUGUAGCGGUGCCAGUAUUUCAGUAGAUGGGAUUUCAG", "RBNS enrichment (R)": 0.435}
{"Strand": "AUCUUGCUUCAUGAGAUUGUACCUCUUAAGUGGCUGCGGACCUGGCUAAACUGUGGGUGGCAGUGGGCAUCCCCAUCACCCUUAGCAAGGUGUGGUUCUCAGUGCCUGUC", "RBNS enrichment (R)": 0.257}
{"Strand": "CUCUGAAGUUAUAAUGCUUUGGUCUCUACAUUAGGGGCAAGAUCCAGUCUGAGAGAAGUCUCCUUUGAGAAGGGCCAAGAGGCUCUUUCCUGAGUGUUUGCUUUCGGUUU", "RBNS enrichment (R)": 0.82}
{"Strand": "GGUGGCCAGGUCAGCUACUGCCCUUCCCAGAAAGCCCUGGAGGUGACCAUAGCCUGUCACCACCCAACAUCACCACGGGCUGGGUUUUGUGUUUCACAUUGGGUAGUAUG", "RBNS enrichment (R)": 0.515}
{"Strand": "UUUGUAUUUAAUUUUAAAGUCAGUGUACUGCAAGGAGGCUGGAUGCAAGAUAGAUACUAUAUUAAACUGUACUGUUAUUUAAGAUGUAAUAAAGCAGUUUGACAUGAGGG", "RBNS enrichment (R)": 0.387}
{"Strand": "GGGUGGCUGGUUAAUAUCUCACACAGUUUGAAAAAUCAGCCCCUGGUUUCUCCAUGUUUACACUUCAAUCUGCAGGCUUCUUAAAGUGACAGUAUCCCUUAACCUGCCAC", "RBNS enrichment (R)": 0.355}
{"Strand": "AAGACACAUAUUUGUGUGUGUAUGUGUGUGUGUGUGUGUGUGUGUGUAUAAGCAUACAUGGGAAUUUUUCUGAAUGUAAGCAGUUUUGAUGUGUCUGUAUAUCAAUCUGU", "RBNS enrichment (R)": 4.11}
{"Strand": "UGUGUGUGUGUCUUAGUGGAUCUUUACUUACCCAGGAGCAGGGCUAUGCUUACUCCUUGAAGCUCCUCCUAAAGGCCUCUCCUCCAUGCUAUACCCCUCUCCAUUACAGA", "RBNS enrichment (R)": 0.234}
{"note": "Repeated from above (block 2):"}
{"Strand": "CAGCCACG", "E-score": 0.375}
{"Strand": "AGAACGTG", "E-score": 0.37}
{"Strand": "GAGCGTGA", "E-score": 0.254}
{"Strand": "CCTCGCCC", "E-score": 0.292}
{"Strand": "ACGTGATC", "E-score": 0.314}
{"Strand": "CGGCCACG", "E-score": 0.397}
{"Strand": "CACGCTTC", "E-score": 0.382}
{"Strand": "CGTGGGAG", "E-score": 0.285}
{"Strand": "AGATGCAC", "E-score": 0.256}
{"Strand": "AATCGTGG", "E-score": 0.259}
